Results collected from several papers.
Each numbered part is a random draw from the data of one study; scales do not carry over between parts. Several values in a cell are separate wells, animals, samples, runs or records.
Chain of UniProt O00444 (whole entry, looked up): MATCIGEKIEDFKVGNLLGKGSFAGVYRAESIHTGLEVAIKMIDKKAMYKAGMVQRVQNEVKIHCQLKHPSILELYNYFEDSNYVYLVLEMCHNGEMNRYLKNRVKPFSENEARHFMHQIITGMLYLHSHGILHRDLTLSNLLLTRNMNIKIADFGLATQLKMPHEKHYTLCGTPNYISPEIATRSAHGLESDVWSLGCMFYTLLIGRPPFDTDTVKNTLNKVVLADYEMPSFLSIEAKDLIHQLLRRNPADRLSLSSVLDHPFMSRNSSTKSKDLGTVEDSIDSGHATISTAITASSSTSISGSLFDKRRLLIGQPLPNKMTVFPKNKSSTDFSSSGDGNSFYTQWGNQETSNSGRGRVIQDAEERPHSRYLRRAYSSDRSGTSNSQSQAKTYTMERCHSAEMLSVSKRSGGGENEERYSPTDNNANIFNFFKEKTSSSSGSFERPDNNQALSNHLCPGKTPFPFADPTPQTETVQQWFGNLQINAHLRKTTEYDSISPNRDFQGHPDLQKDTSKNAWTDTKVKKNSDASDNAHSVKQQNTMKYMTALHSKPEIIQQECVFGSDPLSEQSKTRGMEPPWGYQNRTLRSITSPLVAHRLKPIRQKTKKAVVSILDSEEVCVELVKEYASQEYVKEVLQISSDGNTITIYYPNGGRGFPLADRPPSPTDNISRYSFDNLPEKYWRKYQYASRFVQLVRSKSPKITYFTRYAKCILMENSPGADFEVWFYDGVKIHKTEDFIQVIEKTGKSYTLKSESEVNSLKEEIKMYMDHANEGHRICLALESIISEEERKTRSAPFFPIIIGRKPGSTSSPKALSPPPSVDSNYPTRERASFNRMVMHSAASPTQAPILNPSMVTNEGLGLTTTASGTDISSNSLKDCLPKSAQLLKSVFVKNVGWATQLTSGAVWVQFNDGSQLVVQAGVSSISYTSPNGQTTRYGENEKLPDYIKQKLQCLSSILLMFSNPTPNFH
Chain of UniProt P11362 (whole entry, looked up): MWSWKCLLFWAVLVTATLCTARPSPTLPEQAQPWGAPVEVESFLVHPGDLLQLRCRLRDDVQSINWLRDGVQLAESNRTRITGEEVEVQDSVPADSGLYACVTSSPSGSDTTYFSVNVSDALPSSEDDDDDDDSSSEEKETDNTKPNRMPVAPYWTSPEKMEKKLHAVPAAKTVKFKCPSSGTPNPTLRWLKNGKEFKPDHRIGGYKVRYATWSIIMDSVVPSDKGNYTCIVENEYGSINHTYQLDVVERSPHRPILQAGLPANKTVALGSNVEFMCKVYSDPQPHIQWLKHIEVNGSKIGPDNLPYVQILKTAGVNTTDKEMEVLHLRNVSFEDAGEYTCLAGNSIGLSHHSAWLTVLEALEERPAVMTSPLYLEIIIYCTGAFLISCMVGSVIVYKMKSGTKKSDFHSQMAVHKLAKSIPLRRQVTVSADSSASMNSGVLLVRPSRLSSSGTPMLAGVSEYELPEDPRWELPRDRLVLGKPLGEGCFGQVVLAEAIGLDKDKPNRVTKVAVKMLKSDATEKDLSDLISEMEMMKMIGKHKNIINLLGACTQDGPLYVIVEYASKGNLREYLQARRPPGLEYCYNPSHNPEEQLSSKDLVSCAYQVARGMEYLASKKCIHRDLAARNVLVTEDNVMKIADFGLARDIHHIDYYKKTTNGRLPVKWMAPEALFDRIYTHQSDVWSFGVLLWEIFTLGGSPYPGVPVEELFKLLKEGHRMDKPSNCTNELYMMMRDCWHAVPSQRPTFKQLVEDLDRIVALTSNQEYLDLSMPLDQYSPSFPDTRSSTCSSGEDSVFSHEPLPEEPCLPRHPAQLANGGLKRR
Chain of UniProt Q14012 (whole entry, looked up): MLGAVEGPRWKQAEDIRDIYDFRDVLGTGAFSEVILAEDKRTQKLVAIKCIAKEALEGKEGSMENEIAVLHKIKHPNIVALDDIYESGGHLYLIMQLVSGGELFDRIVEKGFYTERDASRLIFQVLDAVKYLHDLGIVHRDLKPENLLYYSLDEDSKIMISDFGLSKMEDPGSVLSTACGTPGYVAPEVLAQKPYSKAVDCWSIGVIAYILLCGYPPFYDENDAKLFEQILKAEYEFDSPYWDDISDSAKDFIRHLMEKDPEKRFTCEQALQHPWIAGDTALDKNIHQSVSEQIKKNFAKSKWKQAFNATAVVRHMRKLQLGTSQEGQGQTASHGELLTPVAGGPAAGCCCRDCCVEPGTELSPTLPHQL
Chain of UniProt Q13554 (whole entry, looked up): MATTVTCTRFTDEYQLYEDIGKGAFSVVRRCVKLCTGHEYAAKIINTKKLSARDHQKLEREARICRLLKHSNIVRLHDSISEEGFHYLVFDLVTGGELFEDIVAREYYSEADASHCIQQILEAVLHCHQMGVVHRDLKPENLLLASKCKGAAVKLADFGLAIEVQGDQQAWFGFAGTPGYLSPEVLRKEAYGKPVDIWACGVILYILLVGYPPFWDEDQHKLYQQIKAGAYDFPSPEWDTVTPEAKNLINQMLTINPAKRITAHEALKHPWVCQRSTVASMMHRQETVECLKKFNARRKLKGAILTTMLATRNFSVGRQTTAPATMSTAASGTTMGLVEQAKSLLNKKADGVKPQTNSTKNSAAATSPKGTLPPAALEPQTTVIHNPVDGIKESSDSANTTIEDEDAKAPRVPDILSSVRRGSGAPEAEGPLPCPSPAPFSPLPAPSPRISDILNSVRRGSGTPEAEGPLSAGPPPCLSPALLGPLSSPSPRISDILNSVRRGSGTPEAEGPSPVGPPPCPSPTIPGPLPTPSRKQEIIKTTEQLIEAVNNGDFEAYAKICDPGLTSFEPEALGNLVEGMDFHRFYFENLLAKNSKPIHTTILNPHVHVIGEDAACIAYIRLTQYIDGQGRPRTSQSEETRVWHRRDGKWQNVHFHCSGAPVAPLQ

Study 1 — measurement: inhibition
SMILES: NCc1ccc(Cn2cc(Cc3cc(N)nc4[nH]nnc34)cn2)cc1
Target: Myeloperoxidase (MPO, Homo sapiens, UniProt P05164)
Chain of UniProt P05164 (whole entry, looked up): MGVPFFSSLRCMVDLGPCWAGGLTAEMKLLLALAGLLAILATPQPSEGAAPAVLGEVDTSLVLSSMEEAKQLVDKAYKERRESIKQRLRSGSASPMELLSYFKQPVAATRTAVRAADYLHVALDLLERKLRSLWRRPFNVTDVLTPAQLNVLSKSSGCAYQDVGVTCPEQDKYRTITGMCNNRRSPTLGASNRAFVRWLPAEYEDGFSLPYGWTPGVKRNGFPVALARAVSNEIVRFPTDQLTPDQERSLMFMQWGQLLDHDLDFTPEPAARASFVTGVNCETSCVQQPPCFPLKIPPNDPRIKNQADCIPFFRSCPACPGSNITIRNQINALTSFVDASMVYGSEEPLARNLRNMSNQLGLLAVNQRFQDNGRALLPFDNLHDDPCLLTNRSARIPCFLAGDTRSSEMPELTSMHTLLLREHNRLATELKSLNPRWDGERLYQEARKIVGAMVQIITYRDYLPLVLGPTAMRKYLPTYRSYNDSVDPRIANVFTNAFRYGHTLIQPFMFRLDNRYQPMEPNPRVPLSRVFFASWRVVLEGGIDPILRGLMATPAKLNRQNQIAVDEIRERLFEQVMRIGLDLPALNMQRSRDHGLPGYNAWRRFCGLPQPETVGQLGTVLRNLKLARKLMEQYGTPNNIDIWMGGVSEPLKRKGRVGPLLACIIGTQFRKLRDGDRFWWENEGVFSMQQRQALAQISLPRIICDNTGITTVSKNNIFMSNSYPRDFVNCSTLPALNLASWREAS
H2O2 consumption, Amplex Red; 10 µM: 99.8%
H2O2 consumption, Amplex Red; 30 µM: 100%
enzyme activity, inhibitor, fluorescence; 3.333 µM: 99.8%
enzyme activity, inhibitor, fluorescence; 30 µM: 100%

Study 2 — observed: kinase activity; measurement: inhibition
Compound: CN(C1COC1)C(C)(C)/C=C(\C#N)C(=O)N1CCC[C@H]1Cn1nc(-c2ccc(Oc3ccccc3)cc2F)c2c(N)ncnc21
IGF1R (Homo sapiens, UniProt P08069); 0.1 µM: 4%
BTK (Homo sapiens, UniProt Q06187); 0.1 µM: 97%
FGFR3 (Homo sapiens, UniProt P22607); 1 µM: 8%
PHKG1 (Homo sapiens, UniProt Q16816); 0.1 µM: 6%
CAMK1 (Homo sapiens, UniProt Q14012); 0.1 µM: 3%
STK24 (Homo sapiens, UniProt Q9Y6E0); 1 µM: 0%
PLK4 (Homo sapiens, UniProt O00444); 1 µM: -3%
TSSK2 (Homo sapiens, UniProt Q96PF2); 1 µM: 0%
CAMK2B (Homo sapiens, UniProt Q13554); 1 µM: 1%
AKT3 (Homo sapiens, UniProt Q9Y243); 1 µM: -1%
MAPK11 (Homo sapiens, UniProt Q15759); 0.1 µM: 2%
MAP4K2 (Homo sapiens, UniProt Q12851); 1 µM: -1%
PRKACB (Homo sapiens, UniProt P22694); 1 µM: 11%
PRKAA2 (Homo sapiens, UniProt P54646); 0.1 µM: -7%

Study 3 — observed: thermal unfolding; technique: differential scanning fluorimetry; tested at: 5.5 µM; direction: higher = more unfolded; measurement: SYPRO Orange fluorescence
Compound: C[C@@H]1CN(c2ccc(-c3cc(C(=O)NCCOCCOCCOCCOCCOCCOCCNC(=O)/C=C/c4[nH]cc(C(=O)N[C@@H](CC(N)=O)c5ccc(F)c(Cl)c5)c4-c4ccc(Cl)cc4F)ccc3F)cc2NC(=O)c2ccc(F)cc2C(F)(F)F)C[C@H](C)N1C
WDR5: WD repeat-containing protein 5 (WDR5, Homo sapiens, UniProt P61964)
DCAF1: DDB1- and CUL4-associated factor 1 (DCAF1, Homo sapiens, UniProt Q9Y4B6)
Chain of UniProt Q9Y4B6 (whole entry, looked up): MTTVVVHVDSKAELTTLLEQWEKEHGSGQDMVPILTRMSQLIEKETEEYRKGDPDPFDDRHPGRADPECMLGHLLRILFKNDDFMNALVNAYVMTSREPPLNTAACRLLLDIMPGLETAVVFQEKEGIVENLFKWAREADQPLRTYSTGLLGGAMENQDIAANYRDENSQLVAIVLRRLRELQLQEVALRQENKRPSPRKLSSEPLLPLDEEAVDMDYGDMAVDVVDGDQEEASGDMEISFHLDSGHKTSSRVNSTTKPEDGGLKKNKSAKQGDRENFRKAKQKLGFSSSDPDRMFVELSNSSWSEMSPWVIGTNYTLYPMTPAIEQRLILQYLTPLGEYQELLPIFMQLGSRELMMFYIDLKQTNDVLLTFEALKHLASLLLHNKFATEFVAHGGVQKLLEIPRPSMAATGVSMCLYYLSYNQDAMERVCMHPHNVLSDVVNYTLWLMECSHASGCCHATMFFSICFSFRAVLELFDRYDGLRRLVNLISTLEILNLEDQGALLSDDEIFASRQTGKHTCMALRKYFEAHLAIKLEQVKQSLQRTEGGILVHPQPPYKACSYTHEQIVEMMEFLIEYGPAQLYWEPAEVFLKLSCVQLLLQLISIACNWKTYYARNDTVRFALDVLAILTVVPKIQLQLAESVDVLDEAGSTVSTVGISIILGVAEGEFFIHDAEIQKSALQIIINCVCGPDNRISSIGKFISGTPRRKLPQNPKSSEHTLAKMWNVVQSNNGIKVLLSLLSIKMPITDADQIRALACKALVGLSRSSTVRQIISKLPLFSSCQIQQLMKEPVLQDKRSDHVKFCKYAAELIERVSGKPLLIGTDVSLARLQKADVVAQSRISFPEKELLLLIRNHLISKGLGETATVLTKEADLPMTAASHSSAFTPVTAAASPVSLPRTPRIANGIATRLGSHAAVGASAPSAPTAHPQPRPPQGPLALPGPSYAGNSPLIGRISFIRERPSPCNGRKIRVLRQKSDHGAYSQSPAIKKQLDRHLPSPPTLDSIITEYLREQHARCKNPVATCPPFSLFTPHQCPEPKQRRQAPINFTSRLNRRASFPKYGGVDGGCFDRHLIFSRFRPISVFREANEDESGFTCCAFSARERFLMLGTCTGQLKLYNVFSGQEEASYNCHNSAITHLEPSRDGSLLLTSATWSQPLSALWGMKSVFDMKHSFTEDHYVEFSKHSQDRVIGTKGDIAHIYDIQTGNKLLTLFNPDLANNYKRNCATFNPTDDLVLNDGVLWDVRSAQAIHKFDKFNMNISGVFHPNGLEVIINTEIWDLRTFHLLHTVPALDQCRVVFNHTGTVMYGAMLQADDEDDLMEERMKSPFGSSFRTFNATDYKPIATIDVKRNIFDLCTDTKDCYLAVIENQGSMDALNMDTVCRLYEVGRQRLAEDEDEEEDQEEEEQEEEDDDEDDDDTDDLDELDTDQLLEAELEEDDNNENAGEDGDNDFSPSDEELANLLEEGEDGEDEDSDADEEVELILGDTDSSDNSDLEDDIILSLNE
WDR5; 55.61 °C: 16500 a.u.
DCAF1; 66.81 °C: 51800 a.u.
WDR5; 53.41 °C: 16600 a.u.
DCAF1; 42.6 °C: 13200 a.u.
WDR5; 56.81 °C: 16000 a.u.
WDR5; 63.21 °C: 15400 a.u.
WDR5; 25.4 °C: 13200 a.u.
DCAF1; 45.4 °C: 14600 a.u.
DCAF1; 55.41 °C: 28300 a.u.
DCAF1; 83.61 °C: 37100 a.u.
DCAF1; 67.81 °C: 50500 a.u.

Study 4 — cell line: U-87 MG; tested at: concentration not given; reference: DMSO; measurement: log2 fold change
Structure (SMILES): CCN1/C(=C/C=C2\CCCC(/C=C/C3=[N+](CC)c4ccccc4C3(C)C)=C2NCCCCCCCCN2CCC(Nc3nc4ccccc4n3Cc3ccc(F)cc3)CC2)C(C)(C)c2ccccc21
refers to: UBTD2 mRNA: 1.41
refers to: CFAP45 mRNA: -1.43
refers to: WDR25 mRNA: 1.03
refers to: AKAP5 mRNA: -1.24
refers to: CCNF mRNA: -2.57
refers to: ZNF133 mRNA: 0.845
refers to: CNN1 mRNA: -1.8
refers to: CLDN14 mRNA: 3.32
refers to: PRDM8 mRNA: -0.937
refers to: NFKBIB mRNA: 1.32
refers to: PTPRS mRNA: -0.812
refers to: C9orf40 mRNA: -1.13

Study 5 — observed: enzyme activity; action: inhibitor; technique: Ub-TR-FRET; matrix: HECT domain; tested at: 0.04572 µM; direction: higher = more chain formation; measurement: ubiquitin chain formation AUC
Target: E3 ubiquitin-protein ligase NEDD4, HECT domain (Homo sapiens, UniProt P46934)
Construct (P46934 938-1319, limits assumed): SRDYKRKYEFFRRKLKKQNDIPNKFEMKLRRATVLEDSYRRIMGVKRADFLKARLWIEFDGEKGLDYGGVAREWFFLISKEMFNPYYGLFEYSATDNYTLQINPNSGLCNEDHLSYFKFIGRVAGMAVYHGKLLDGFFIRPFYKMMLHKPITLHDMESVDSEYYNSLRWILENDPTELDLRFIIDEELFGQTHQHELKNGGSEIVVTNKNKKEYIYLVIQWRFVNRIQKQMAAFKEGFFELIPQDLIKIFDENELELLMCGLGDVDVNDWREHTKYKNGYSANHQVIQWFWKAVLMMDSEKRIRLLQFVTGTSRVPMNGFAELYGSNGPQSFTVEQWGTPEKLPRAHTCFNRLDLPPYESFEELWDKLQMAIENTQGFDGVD
N#C/C=C/CNCCCCN1c2ccccc2CCc2ccc(Cl)cc21.O=C(O)/C=C\C(=O)O: 86400 a.u. and 81900 a.u. and 96200 a.u. and 94800 a.u. and 87500 a.u. and 68800 a.u.
COC(=O)CCCNCCCN1c2ccccc2CCc2ccc(Cl)cc21.COC(=O)CCCNCCCN1c2ccccc2CCc2ccc(Cl)cc21.O=C(O)/C=C/C(=O)O: 133000 a.u. and 131000 a.u.
CCONC(=O)/C=C/CNCCCCN1c2ccccc2CCc2ccc(Cl)cc21.O=C(O)/C=C\C(=O)O: 33200 a.u. and 36300 a.u. and 25600 a.u. and 36100 a.u. and 25400 a.u. and 23800 a.u.
CN(C)C/C=C/C(=O)NCCCN1c2ccccc2CCc2ccc(Cl)cc21: 132000 a.u. and 133000 a.u. and 131000 a.u.
CCOC(=O)/C=C/CNCCCCN1c2cc(Cl)ccc2C(=O)N(C)c2ccccc21.O=C(O)/C=C\C(=O)O: 90300 a.u. and 89800 a.u. and 91200 a.u.
CCOC(=O)/C=C/CNCCCCN1c2ccccc2C(=O)N(C)c2ccc(Cl)cc21.O=C(O)/C=C\C(=O)O: 95300 a.u. and 98100 a.u. and 98300 a.u.
CN(C)C(=O)/C=C/CNCCCN1c2ccccc2CCc2ccc(Cl)cc21.Cl: 141000 a.u. and 140000 a.u.
Cl.NC(=O)/C=C/CNCCCN1c2ccccc2CCc2ccc(Cl)cc21: 141000 a.u. and 140000 a.u.
CONC(=O)/C=C/CNCCCCN1c2ccccc2CCc2ccc(Cl)cc21.O=C(O)/C=C\C(=O)O: 57200 a.u. and 38900 a.u. and 62900 a.u. and 37000 a.u. and 39700 a.u.

Study 6 — tested at: 1 µM; measurement: remaining binding
Structure (SMILES): CCC1(c2cccc(-c3cn(C)nc3C)c2)C2=C(Nc3n[nH]cc31)C(F)C(C)(C)CC2=O (single isomer, unassigned)
SGK3 (Homo sapiens, UniProt Q96BR1); kinase binding, KINOMEscan; reference: DMSO control: 100%
TESK1 (Homo sapiens, UniProt Q15569); binding, competition with immobilised ligand: 100%
STK25 (Homo sapiens, UniProt O00506); binding, competition with immobilised ligand: 90%
CDC42BPG (Homo sapiens, UniProt Q6DT37); KINOMEscan: 91%
PIK3C2B (Homo sapiens, UniProt O00750); kinase binding, KINOMEscan; reference: DMSO control: 100%
RIPK2 (Homo sapiens, UniProt O43353); binding, competition with immobilised ligand: 100%
CDKL2 (Homo sapiens, UniProt Q92772); kinase binding, KINOMEscan; reference: DMSO control: 100%
Insulin receptor (INSR, Homo sapiens, UniProt P06213); kinase binding, KINOMEscan; reference: DMSO control: 100%
SNRK (Homo sapiens, UniProt Q9NRH2); kinase binding, KINOMEscan; reference: DMSO control: 95%
CDK8 (Homo sapiens, UniProt P49336); kinase binding, KINOMEscan; reference: DMSO control: 100%
PLK4 (Homo sapiens, UniProt O00444); binding, competition with immobilised ligand: 95%
PIK3CA (Homo sapiens, UniProt P42336, M1043I); binding, competition with immobilised ligand: 94%
Tyrosine-protein kinase ABL1, phosphorylated (ABL1, Homo sapiens, UniProt P00519, F317L); binding, competition with immobilised ligand: 98%
ACVRL1 (Homo sapiens, UniProt P37023); kinase binding, KINOMEscan; reference: DMSO control: 92%
ULK1 (Homo sapiens, UniProt O75385); binding, competition with immobilised ligand: 100%
FGFR1 (Homo sapiens, UniProt P11362); kinase binding, KINOMEscan; reference: DMSO control: 100%

Study 7 — observed: binding; technique: competition with immobilised ligand; tested at: 1 µM; measurement: remaining binding
Structure (SMILES): COc1cc(-c2nc3ccc(C(=O)NCCCN4CCN(c5cccc(C)c5C)CC4)cc3n2C2CCC2)cc(OC)c1OC
NEK4 (Homo sapiens, UniProt P51957): 100%
RIOK2 (Homo sapiens, UniProt Q9BVS4): 79%
GAK (Homo sapiens, UniProt O14976): 100%
TEK (Homo sapiens, UniProt Q02763): 84%
Ribosomal protein S6 kinase alpha-1, C-terminal kinase domain (RPS6KA1, Homo sapiens, UniProt Q15418): 95%
PIP4K2C (Homo sapiens, UniProt Q8TBX8): 99%
ULK2 (Homo sapiens, UniProt Q8IYT8): 93%
MAP3K3 (Homo sapiens, UniProt Q99759): 100%
PRKD1 (Homo sapiens, UniProt Q15139): 89%
CDK2 (Homo sapiens, UniProt P24941): 100%
FGFR1 (Homo sapiens, UniProt P11362): 99%
DAPK3 (Homo sapiens, UniProt O43293): 100%
Mast/stem cell growth factor receptor Kit, autoinhibited (KIT, Homo sapiens, UniProt P10721): 87%

Some of these lines once more (study 2):
PHKG1 (Homo sapiens, UniProt Q16816); 0.1 µM: 6%
CAMK1 (Homo sapiens, UniProt Q14012); 0.1 µM: 3%
STK24 (Homo sapiens, UniProt Q9Y6E0); 1 µM: 0%
PLK4 (Homo sapiens, UniProt O00444); 1 µM: -3%
TSSK2 (Homo sapiens, UniProt Q96PF2); 1 µM: 0%
CAMK2B (Homo sapiens, UniProt Q13554); 1 µM: 1%
AKT3 (Homo sapiens, UniProt Q9Y243); 1 µM: -1%
MAPK11 (Homo sapiens, UniProt Q15759); 0.1 µM: 2%
